Measured values gathered from unrelated publications.
Lines come from different studies, so protocols differ. ± marks the error that the study gave.
UniProt Q8NEW0, sequence (whole entry, looked up): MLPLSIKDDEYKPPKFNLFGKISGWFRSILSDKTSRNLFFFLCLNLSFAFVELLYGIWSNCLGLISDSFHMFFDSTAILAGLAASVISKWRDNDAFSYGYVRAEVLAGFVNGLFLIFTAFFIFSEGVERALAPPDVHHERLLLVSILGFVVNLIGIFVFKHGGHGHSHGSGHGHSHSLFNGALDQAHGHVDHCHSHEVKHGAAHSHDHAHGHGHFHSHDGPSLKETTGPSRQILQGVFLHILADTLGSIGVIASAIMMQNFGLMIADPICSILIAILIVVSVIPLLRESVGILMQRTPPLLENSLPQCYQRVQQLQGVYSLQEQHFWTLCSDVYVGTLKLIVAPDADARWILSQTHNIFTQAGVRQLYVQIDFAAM

Compound	target or system	assay	test system	setting	how to read	endpoint	result
[Cl-].[Cl-].[Pt+2].[Ru+2].c1ccc(-c2nccnc2-c2ccccn2)nc1.c1cnc2c(c1)ccc1cccnc12.c1cnc2c(c1)ccc1cccnc12	Danio rerio	–	embryos	15 µM, 48 h	–	survival rate	90 ± 1.9%
O[C@@H](CNCCN1CCN(C(c2ccccc2)c2ccccc2)CC1)c1cc(Cl)cc2c1-c1ccc(Cl)cc1C2	Plasmodium falciparum	–	W2	–	relative to: HepG2 CC50 over IC50	selectivity index	2080
COc1cc(Nc2ncc(F)c(Nc3ccc4c(n3)NC(=O)C(C)(C)O4)n2)cc(OC)c1OC	gabapentin binding site	binding	–	–	–	IC50	> 10 µM
COc1cc2c(Oc3ccc4[nH]c(C)cc4c3F)ccnc2cc1OCC1(N)CC1	–	–	paediatric recurrent refractory sarcoma	10 mg	–	grade 3 Triglyceride elevation	0%
CC(=O)N1CCC(C(=O)N2CCN3C(=O)c4cc(-c5ccccc5)ccc4NC(=O)C3C2)CC1 (stereo not drawn)	Escherichia coli	–	WP2 uvrA	158 µg/plate, with rat liver S9	relative to: vehicle	revertant fold increase	0.8
COc1cccc(-c2n[nH]c(SCc3ccccn3)n2)c1OC	Salmonella typhimurium	Ames test, plate incorporation	TA1537	0.13 mg/plate, without S9	–	revertant colonies per plate	11
[Cl-].[Cl-].[Pt+2].[Ru+2].c1ccc(-c2nc3cc4ccccc4cc3nc2-c2ccccn2)nc1.c1cnc2c(c1)ccc1cccnc12.c1cnc2c(c1)ccc1cccnc12	Danio rerio	–	embryos	90 µM, 48 h	–	hatching rate	0%
OC(CCN1CC=C(c2ccc(F)cc2)CC1)c1ccc(F)c2ccccc12 (stereo not drawn)	Salmonella typhimurium	SOS/umu test	TA1535/pSK1002	0.004 mg/mL, 4 h, without S9, full range	–	survival	95.2%
CO[C@H]1C[C@@H]2CC[C@@H](C)[C@@](O)(O2)C(=O)C(=O)N2CCCC[C@H]2C(=O)O[C@H]([C@H](C)C[C@@H]2CC[C@@H](OC(=O)NCCOCCOCCOCCOCCOCCOCCOCCOCCC(=O)N3CCc4cc(Cn5nc(-c6ccc7oc(N)nc7c6)c6c(N)ncnc65)ccc4C3)[C@H](OC)C2)C[C@@H](O)[C@H](C)/C=C(\C)[C@@H](O)[C@@H](OC)C(=O)[C@H](C)C[C@H](C)/C=C/C=C/C=C/1C	–	–	patients with advanced solid tumours	intravenous, 1.6 mg/3 mg weekly, grade ≥3	–	incidence of Mucositis TRAE	0%
Cc1cc(C(=O)NC(C)(C)COc2cccc3c2C(N)=NS(=O)(=O)N3)cc(C)n1	Salmonella typhimurium	Ames test, initial	TA1535	5000 µg/plate, together with: rat liver S9	relative to: solvent control	revertant ratio	1.2
O=[N+]([O-])c1ccc(N2CCN(CCC(O)c3ccc(F)cc3)CC2)c(C(F)(F)F)c1 (stereo not drawn)	Salmonella typhimurium	genotoxicity, SOS/umu test	TA1535/pSK1002	0.002 mg/mL, 4 h, with S9, lower range	–	induction factor	0.9
C[C@H]1CN(c2n[nH]c3nc(N[C@H]4CC[C@H](NS(=O)(=O)CCC(F)(F)F)CC4)ncc23)CCO1	Zinc transporter 7 (Homo sapiens, UniProt Q8NEW0)	Kinobeads competition, refers to: SLC30A7	–	0.8 µM, unit not given	relative to: vehicle	remaining binding	1.19

For quick reference, copied from above:
Compound	target or system	assay	test system	setting	how to read	endpoint	result
COc1cc(Nc2ncc(F)c(Nc3ccc4c(n3)NC(=O)C(C)(C)O4)n2)cc(OC)c1OC	gabapentin binding site	binding	–	–	–	IC50	> 10 µM
